Results collected from several papers.
Numbered parts are unrelated; each lists some results of a single study. Substitutions count along the parent as printed.

Study 1 — technique: competition protein-binding microarray; form: double-stranded DNA, one strand shown; sample: in vitro; concentration: 2 µM; with: Cbf1 competitor, 0.05 µM; direction: higher = stronger binding; all sequences stand within: … GTCTTGATTCGCTTGACGCTGCTG
Target: Phosphate system positive regulatory protein PHO4, full length, GST-tagged (PHO4, Saccharomyces cerevisiae, UniProt P07270, residues 1-312)
Setting: whole 60-bp probe, lowest competitor level
Construct (chain): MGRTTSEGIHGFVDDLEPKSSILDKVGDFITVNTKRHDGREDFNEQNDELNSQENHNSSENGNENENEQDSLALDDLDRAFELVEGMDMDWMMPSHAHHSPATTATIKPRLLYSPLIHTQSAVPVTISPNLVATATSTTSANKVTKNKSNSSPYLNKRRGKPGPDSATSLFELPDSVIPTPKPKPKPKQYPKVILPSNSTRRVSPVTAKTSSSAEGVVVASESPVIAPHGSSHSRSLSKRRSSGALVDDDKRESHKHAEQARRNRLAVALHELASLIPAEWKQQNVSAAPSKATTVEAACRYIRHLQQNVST
| Oligonucleotide | fluorescence intensity |
| --- | --- |
| GTCTTGTCTCATTGTTTAGTGGGTGTCCCCACTTCA | 4830 a.u. |
| TTATGACTGCGAATGTCCGTGCAATGCGGCCCAATT | 5050 a.u. |
| CTAACGAAGGTTTGCAGCGTGGGTGACAAGCCAAGT | 7240 a.u. |
| AAAGTATTTTACTGGCACGATGCATCCATGGGACTA | 11100 a.u. |
| GTCTTAATAGAAGGACACGTGGAATCTAAGGACGGA | 17800 a.u. |
| AAATTACTAAGTTGGCACGTGGGTGACGCCGTATGA | 19900 a.u. |
| CTTCTGTAAATTTTTCACGTGGGCTGACGCGCCCCG | 13700 a.u. |
| TTTTTTGAACTTCACCACGGGCTATTTTCTTCTTAG | 8960 a.u. |
| CCGGTTAACGTTGTGGACGTGTTGGCGATGCCTCAA | 5010 a.u. |
| GTCTTGTCTCATTTTCACGTGCTGTTCCCCACTTCA | 13600 a.u. |
| GCAGTGCCATCCCGTCACATGACAACACCACTTTAA | 7650 a.u. |
| CGTCCTAGTGATTGTGGAGTGGGTGCCATGAGGAAG | 6990 a.u. |
| CGTCCTAGTGATTGTCACTCCACTTCCATGAGGAAG | 4390 a.u. |
| TCTTCAGCCTTGCCCAACGTGGAGTCGACTACGCCC | 11000 a.u. |
| CTTCTGTAAATTTGCCTTGTGGGTGGACGCGCCCCG | 5290 a.u. |
| CTTTCCCGATCTTGTACCGTGGGTGTAGCACATTTG | 5670 a.u. |
| ACCAAAAGACCAGAGCTCGTGATGGTCGGCTGCACC | 7340 a.u. |
| GACTTTTCGAGCCTTTATGACCGGATAAAAAGCCTA | 2420 a.u. |
| ATAAAAGAATGCCATCACGTGTTTCCAATCCATTCG | 15600 a.u. |
| AAAGCGGTAATTTGTAATGTGGGTGCAGATATCTAT | 4950 a.u. |

Study 2 — technique: RNA Bind-n-Seq; form: RNA; sample: in vitro; concentration: 1 µM; setting: whole 134-nt RNA, ends assumed; with: 150 mM KCl; reference: input library; direction: higher = stronger binding
Target: Ras GTPase-activating protein-binding protein 1, C-terminal RGG region (G3BP1, Homo sapiens, UniProt Q13283)
Chain of UniProt Q13283 (whole entry, looked up): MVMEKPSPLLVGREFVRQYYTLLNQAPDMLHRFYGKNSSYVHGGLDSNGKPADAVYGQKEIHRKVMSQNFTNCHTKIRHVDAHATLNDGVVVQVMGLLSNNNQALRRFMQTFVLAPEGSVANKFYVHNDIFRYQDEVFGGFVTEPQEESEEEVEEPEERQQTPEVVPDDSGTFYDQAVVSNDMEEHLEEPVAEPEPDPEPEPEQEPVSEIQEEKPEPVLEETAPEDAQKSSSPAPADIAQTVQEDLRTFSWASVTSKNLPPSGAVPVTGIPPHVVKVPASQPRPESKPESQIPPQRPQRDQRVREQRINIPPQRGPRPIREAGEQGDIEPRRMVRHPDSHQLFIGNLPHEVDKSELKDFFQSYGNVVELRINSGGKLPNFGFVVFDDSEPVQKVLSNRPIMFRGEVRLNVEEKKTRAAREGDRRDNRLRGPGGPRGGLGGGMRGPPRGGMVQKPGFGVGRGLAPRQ
All sequences stand within: GGGAGUUCUACAGUCCGACGAUC … UGGAAUUCUCGGGUGUCAAGG
| Oligonucleotide | log2 enrichment |
| --- | --- |
| GCAGGAAGUAAAAACAAAUGGAAAUGCUUCGGAUAGUAAAAGGGGUGGGGGUUGCUAAGGAAAGGGUGGGAUGGGAGUGGGUAAAGAGUU | 2.23 |
| UGACCUGCACGGACAUCAACACCCUGACAAGGCAGAAGGAACUUCUCCUGCAGAAGCUGAGCACAUUUGAGGAGACCAACCGCACCCUCC | -0.27 |
| AAGUCCUGUGCUACACAUCGUAUGUACCGAAUCGGGAAAGGGUUUUUUUGGGAGGGAAAGUAUUAUGUUACGCCGUUCGGAUCUGCACUU | 0.637 |
| UCCUCAAGUCCUGUGCUACACAUCGUAUGUACCGAAUCGGAGGUUUGGAGGAAAGUAUUAUGUUACGCCGUUCGGAUCUGCACUUCCAGC | -1.22 |
| ACCAUGCAGGUGGGCAUCUUUGGGAAGUGGGGCAAGGGGGGGAUAGGGAGAGGGGUAACACUUUGGGAACAGGUGGUCCCAGGUCGUUUC | 2.44 |
| CUCAAGUCCUGUGCUACACAUCGUAUGUACCGAAUCGGUUGGGGUUGGUUGGGGAAAGUAUUAUGUUACGCCGUUCGGAUCUGCACUUCC | 0.447 |
| UCCUGUGCUACACAUCGUAUGUACCGAAUCGGGGCCCCCGGGCCCCCGGGGCCCCCGGGAAAGUAUUAUGUUACGCCGUUCGGAUCUGCA | -1.95 |
| UGUUGCCGUGUGUCUCACCCUACCAUUUCAGAAAAAUGUUCGUUGGUGGCCUGAGCUGGGAUACUAGCAAAAAAGAUUUAAAAGACUAUU | -2.27 |
| ACCAUGCAGGUAGGCAUCUUUGGGAAGUGGGGCAAGGGGGGGAUAGGGAGGGGGGUAACACUUUGGGAACAGGUGGUCCCAGGUCGUUUC | -1.42 |
| UCCUGUGCUACACAUCGUAUGUACCGAAUCGGGUUUUUGGGUUUUUGGGGUUUUUGGGGAAAGUAUUAUGUUACGCCGUUCGGAUCUGCA | 0.294 |
| GUCCUGUGCUACACAUCGUAUGUACCGAAUCGGGUUUUUUGGUUUUUUGGGUUUUUUGGAAAGUAUUAUGUUACGCCGUUCGGAUCUGCA | -1.58 |
| UUUCAAAGCCAAAGGGCCUUGUGACGCCCCUCUUGCCCACCUCCCUCCACACCGUGUCCUCCCCUAUAUGACAAUCAAUGUGACCUCUCU | 0.267 |
| CUCAAGUCCUGUGCUACACAUCGUAUGUACCGAAUCGGGUUGGGGUUGGUUGGGAAAGUAUUAUGUUACGCCGUUCGGAUCUGCACUUCC | 0.029 |
| CCUCAAGUCCUGUGCUACACAUCGUAUGUACCGAAUCGGGGAGGAGGGAGGGGAAAGUAUUAUGUUACGCCGUUCGGAUCUGCACUUCCA | 0.765 |

Study 3 — technique: RNA Bind-n-Seq; form: RNA; sample: in vitro; concentration: 365 nM; reference: no-protein control; direction: higher = stronger binding
Target: RNA binding protein fox-1 homolog 2, RRM domain, GST-SBP tag (RBFOX2, Homo sapiens, UniProt O43251-10, residues 100-194)
Setting: natural RNA segment, single round, ends assumed
All sequences stand within: GGGAGUUCUACAGUCCGACGAUC … UGGAAUUCUCGGGUGCCAA
Residues (chain): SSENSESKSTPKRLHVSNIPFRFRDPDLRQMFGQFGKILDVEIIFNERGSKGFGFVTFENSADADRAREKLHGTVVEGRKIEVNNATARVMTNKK
| Oligonucleotide | RBNS enrichment (R) |
| --- | --- |
| UAUGCUGCUUUAAACCUGGAAGUGGGAGUGAGAAGUUUGGAUUGCUGUCCACGCUUAGGAGCCAAGCCGGGAAUGCAUUAAUCAUUUCUUCGUUAACAGAGGAAUCUGCU | 0.386 |
| AUAAGGAAAACAAAGCGACGCCUAUUUUGUAUAAAGUUUCCGACUCCGUCUUGGCCAUGUCUAGUAAUUGCUAUGUGUUGGGAGAAACUUUGUGAAUGCACCAUUUUGAU | 2.58 |
| AUCCUGGCUAUAGUAUUGUAUACACAGGGCCACCAGCCCCGCCCUAGUGGUCAGCUCUGAGGGGGGACUGGUGACUCUGAACAGAUCGAUGUCAACAGCCAUGGUGAACC | 0.352 |
| CUCCACAGACAAGAAGUGCAUUGCCAGAAGAGCAUCACUGAACGGAGCGGAGGGAGGACCAGUUGCAUGUGUUUCUGCCCACUCAUUUUGAGCAGCCAUAUUAUAAAAUG | 1.89 |
| CUCUGACCCUUCCUGUUGGUAUUUAUGAAAUCUCAAAGAGAUGAGCCACCUUGGCUUCCAAUAUGGCAAGAGGGUGCUGGGAGAAGGUGAAGAUCAGUCUAAGCUGCCAC | 0.321 |
| UUUUCAUGUGGCUGGGUGGGUUUUUGCCUUUUUCUCUUGCCCUGUUCCUGGUGCCUUCUGAUGGGGCUGGAAUAGUUGAGGUGGAUGGUUCUACCCUUUCUGCCUUCUGU | 0.296 |
| GGCUGGAGAGAUGGCUCAGUGGUUAAAAGCACUGGCUGCUCUUGGUCAGGACACUAGUUCAGUUCCCAGUACCCACAUGGUGGCUCACAACCUUCUGUGACUACAGUUCC | 0.224 |
| UUGGCUAGACUUCAUAUCGUGGAAGUAUUGUCUAUUUCAGUGUGAAACUAUCUUGAAUUUGCAAAUAUAGUGUUAUAUUUUAUAAAGUUUUGUAAAAUCCCAAACAAUAU | 0.404 |
| CUAUAUGAUUAAAGAAAAUAUGCAUAAUCAGACAAGCUUGAAUAUUGUUUUUGCACCAGACGAACAGUGAGGAAAUUCGGAGCUAUACAUAUGUGCAGAAGGUUACUACC | 0.751 |
| AGAAGAGUUUUUAGGUUGAGAAAUGUACUCUGCUUUGCUGAAAAGCCACAGCUUAGGCCCUCAGCCUCACUCCCUGGCUUGCUCAGUGCCUACAGCCCUGUUACCUGAUA | 0.302 |
| AACAUCAGGAAGUUAAUUUGGCUGGCAAAAUUCUAGGGAAACUUGGCCAGAAAACUGGUGUUGAAGGCUUUUGCUCAUAUAAACAAGUGCCAUUGAGUUUCAAAUGACCA | 0.362 |
| AAAAAAAAAAAAGGACUAUUACAGAUCCCAAUACUUGGAUUUGGUGACCUUGUCUUUCUUUCUUUUCUUGAGACAUGGUCCUACUACCAACCCUGGCUGGACUGGAGCUC | 0.435 |

Study 4 — technique: universal PBM; form: double-stranded DNA, one strand shown; sample: in vitro; concentration: not given; direction: higher = stronger binding
Target: Sal-like protein 4, full length isoform B (SALL4, Homo sapiens, UniProt Q9UJQ4-2, residues 1-616)
Setting: 8-mer, flanks averaged, mean of replicates
| Oligonucleotide | E-score |
| --- | --- |
| ACATGCTC | 0.0639 |
| ATTTCCCA | 0.166 |
| GCACGAAA | 0.0444 |
| CTACAGAA | 0.125 |
| GAAGTATA | 0.23 |
| GGGACCCA | -0.236 |
| ACGAACTC | -0.123 |
| ACTCATAC | 0.224 |
| ACTTACCC | 0.0259 |
| GGGTAGAA | -0.0139 |
| GCTGTCCC | -0.192 |
| GAGCCGAC | -0.387 |
| ACCCAACA | -0.171 |
| TGCCGCCA | -0.161 |
| TCGCGGCA | -0.25 |
| TAGTTCCA | 0.124 |
| ACTCAGAA | 0.134 |
| CAGTCAGG | -0.144 |
| AATTAATG | 0.323 |
| CGAAGGAG | -0.193 |
| ACGATAGT | 0.15 |
| AGAAACCT | -0.0896 |
| CTTGAGTC | -0.0656 |
| ACATCGCC | -0.0679 |
| TACTTGAA | 0.289 |

Study 5 — technique: protein binding microarray; form: double-stranded DNA, one strand shown; sample: in vitro; concentration: not given; reference: not given; direction: higher = stronger binding
Target: Histone acetyltransferase KAT6A, winged helix 2, GST fusion (KAT6A, Homo sapiens, UniProt Q92794, residues 85-181)
Setting: 8-mer, flanks averaged, mean of 2 arrays, mostly near background
Target sequence (chain): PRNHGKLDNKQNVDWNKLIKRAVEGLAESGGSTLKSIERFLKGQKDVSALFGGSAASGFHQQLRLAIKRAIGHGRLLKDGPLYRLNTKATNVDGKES
| Oligonucleotide | E-score |
| --- | --- |
| CGTGGGTA | -0.064 |
| CTGTTTAC | -0.0795 |
| AGAACGGC | 0.0529 |
| CTGAAGTC | -0.166 |
| CCAATCCC | -0.0999 |
| CGTTCGGA | 0.129 |
| AAGGGCCG | 0.112 |
| ATCTCGCG | 0.134 |
| CAATTAGC | 0.0906 |
| ACCGCACC | 0.118 |
| ATAGGGAG | -0.16 |
| TAGACTCA | -0.17 |
| GCGGCCGC | 0.238 |
| ATCCACCG | 0.0517 |
| AGACCCCT | -0.184 |
| CCAGAACC | -0.09 |
| AGACCCAG | -0.0428 |
| GCTAGACA | 0.051 |
| ATTCCGGG | 0.156 |
| GTCTGCGA | 0.059 |
| CGGTGTGC | -0.0597 |

Study 6 — target: CCNE1, cyclin fold, Cln2 fusion (human); technique: yeast growth competition, sequencing; sample: yeast; setting: weak parent motif; reference: not given; direction: higher = stronger binding
Starting sequence: AKAP12 docking peptide (human); GSPLKKLFTSTGL
| Change | normalised enrichment score |
| --- | --- |
| K5R F8L | 0.616 |
| T9A | 0.298 |
| F8A | 0.108 |
| K5A | -0.254 |
| S10A | 0.779 |
| K5R | 0.677 |
| G1A | 1.03 |
| S2A | 1.07 |
| G12A | -0.145 |
| K5A L7A | 0.139 |

Some of these lines once more (study 4):
| Oligonucleotide | E-score |
| --- | --- |
| ATTTCCCA | 0.166 |
| ACTTACCC | 0.0259 |
| ACCCAACA | -0.171 |
| ACGATAGT | 0.15 |
| CTACAGAA | 0.125 |
| AATTAATG | 0.323 |
| TGCCGCCA | -0.161 |
| ACATCGCC | -0.0679 |
| GCTGTCCC | -0.192 |
| TACTTGAA | 0.289 |
